Experimental data gathered from unrelated publications.
Each line is one published result; not all experiments were run side by side.
HDAC1: Histone deacetylase 1 (HDAC1, Homo sapiens, UniProt Q13547)
UniProt Q13547, sequence (whole entry, looked up): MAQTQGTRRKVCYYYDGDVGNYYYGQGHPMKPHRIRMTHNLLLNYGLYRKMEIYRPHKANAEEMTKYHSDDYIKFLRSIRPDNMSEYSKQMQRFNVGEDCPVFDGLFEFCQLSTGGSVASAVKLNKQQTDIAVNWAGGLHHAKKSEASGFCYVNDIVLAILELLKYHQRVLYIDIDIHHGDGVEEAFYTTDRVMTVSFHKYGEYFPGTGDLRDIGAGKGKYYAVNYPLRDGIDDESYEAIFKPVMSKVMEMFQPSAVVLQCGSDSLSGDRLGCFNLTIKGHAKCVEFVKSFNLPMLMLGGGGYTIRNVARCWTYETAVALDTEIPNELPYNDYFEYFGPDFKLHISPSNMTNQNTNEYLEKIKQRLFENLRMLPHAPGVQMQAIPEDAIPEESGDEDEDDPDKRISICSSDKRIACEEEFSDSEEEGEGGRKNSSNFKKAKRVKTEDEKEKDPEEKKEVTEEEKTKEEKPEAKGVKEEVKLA
SCN1A: Sodium channel protein type 1 subunit alpha (SCN1A, Homo sapiens, UniProt P35498)
HDAC8: Histone deacetylase 8 (HDAC8, Homo sapiens, UniProt Q9BY41)
UniProt Q9BY41, sequence (whole entry, looked up): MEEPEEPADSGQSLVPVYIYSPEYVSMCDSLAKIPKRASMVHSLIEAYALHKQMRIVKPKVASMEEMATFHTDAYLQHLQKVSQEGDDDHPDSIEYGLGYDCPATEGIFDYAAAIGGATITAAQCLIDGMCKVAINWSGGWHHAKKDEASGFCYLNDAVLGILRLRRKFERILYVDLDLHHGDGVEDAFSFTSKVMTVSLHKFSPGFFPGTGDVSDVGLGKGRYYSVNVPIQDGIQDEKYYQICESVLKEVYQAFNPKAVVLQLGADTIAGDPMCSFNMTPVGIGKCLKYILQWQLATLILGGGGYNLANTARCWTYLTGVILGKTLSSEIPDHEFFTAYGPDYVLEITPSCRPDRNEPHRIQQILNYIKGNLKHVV
USP51: Ubiquitin carboxyl-terminal hydrolase 51 (USP51, Homo sapiens, UniProt Q70EK9)
UniProt Q70EK9, sequence (whole entry, looked up): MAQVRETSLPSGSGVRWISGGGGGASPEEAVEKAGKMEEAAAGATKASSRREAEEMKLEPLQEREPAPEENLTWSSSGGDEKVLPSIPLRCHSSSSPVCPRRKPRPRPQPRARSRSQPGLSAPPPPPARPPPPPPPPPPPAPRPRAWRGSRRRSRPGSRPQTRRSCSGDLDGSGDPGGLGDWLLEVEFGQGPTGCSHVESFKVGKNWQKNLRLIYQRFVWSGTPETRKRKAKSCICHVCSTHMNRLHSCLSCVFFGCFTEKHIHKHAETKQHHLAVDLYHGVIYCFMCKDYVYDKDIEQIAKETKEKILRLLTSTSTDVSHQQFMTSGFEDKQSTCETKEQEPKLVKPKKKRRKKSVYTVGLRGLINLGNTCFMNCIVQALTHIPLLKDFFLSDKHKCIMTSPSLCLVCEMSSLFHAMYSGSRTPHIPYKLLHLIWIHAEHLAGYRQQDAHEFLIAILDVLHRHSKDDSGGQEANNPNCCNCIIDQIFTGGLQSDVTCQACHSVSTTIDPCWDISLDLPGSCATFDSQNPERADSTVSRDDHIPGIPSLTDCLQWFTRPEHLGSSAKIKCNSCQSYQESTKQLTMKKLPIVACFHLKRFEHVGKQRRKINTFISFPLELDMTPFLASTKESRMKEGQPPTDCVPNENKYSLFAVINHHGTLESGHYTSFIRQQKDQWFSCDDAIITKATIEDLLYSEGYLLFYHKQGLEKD
SIRT6: NAD-dependent protein deacylase sirtuin-6 (SIRT6, Homo sapiens, UniProt Q8N6T7)
UniProt Q8N6T7, sequence (whole entry, looked up): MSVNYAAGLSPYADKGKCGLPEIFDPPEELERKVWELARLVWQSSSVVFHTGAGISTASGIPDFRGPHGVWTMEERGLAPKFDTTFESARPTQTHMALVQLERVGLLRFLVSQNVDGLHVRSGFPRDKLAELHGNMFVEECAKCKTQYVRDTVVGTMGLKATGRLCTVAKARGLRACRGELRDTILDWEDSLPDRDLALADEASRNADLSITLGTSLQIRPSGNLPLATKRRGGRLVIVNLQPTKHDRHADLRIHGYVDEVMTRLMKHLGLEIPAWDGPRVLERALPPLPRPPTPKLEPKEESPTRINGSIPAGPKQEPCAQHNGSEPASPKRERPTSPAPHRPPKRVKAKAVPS
PDE10A: cAMP and cAMP-inhibited cGMP 3',5'-cyclic phosphodiesterase 10A (PDE10A, Homo sapiens, UniProt Q9Y233)
UniProt Q9Y233, sequence (whole entry, looked up): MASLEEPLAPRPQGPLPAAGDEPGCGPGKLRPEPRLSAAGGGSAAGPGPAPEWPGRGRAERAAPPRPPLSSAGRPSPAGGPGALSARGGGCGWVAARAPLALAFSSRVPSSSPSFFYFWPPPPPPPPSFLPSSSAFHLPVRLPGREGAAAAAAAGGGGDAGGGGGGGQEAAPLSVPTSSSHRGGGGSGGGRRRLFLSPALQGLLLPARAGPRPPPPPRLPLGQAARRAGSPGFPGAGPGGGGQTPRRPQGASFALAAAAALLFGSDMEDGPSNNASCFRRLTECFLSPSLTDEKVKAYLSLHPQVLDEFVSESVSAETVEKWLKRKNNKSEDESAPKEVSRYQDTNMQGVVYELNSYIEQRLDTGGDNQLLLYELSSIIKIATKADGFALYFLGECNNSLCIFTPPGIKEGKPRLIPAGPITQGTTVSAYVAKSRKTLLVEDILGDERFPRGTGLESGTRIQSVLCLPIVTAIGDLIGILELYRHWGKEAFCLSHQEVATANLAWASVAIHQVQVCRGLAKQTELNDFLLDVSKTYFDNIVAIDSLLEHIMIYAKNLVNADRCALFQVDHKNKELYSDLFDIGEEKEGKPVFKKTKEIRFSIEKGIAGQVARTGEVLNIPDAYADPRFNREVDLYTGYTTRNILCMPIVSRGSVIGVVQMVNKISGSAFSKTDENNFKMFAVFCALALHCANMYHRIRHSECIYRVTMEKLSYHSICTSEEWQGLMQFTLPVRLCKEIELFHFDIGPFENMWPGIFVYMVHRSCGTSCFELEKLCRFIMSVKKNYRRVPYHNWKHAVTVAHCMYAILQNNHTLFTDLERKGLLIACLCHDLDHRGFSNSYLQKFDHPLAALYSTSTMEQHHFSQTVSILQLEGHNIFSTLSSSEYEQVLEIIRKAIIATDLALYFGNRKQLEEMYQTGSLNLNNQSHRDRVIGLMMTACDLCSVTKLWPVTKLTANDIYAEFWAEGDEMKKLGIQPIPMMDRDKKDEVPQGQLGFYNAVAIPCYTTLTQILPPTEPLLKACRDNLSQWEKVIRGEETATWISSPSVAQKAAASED
PTGS2: Prostaglandin G/H synthase 2 (PTGS2, Homo sapiens, UniProt P35354)
UniProt P35354, sequence (whole entry, looked up): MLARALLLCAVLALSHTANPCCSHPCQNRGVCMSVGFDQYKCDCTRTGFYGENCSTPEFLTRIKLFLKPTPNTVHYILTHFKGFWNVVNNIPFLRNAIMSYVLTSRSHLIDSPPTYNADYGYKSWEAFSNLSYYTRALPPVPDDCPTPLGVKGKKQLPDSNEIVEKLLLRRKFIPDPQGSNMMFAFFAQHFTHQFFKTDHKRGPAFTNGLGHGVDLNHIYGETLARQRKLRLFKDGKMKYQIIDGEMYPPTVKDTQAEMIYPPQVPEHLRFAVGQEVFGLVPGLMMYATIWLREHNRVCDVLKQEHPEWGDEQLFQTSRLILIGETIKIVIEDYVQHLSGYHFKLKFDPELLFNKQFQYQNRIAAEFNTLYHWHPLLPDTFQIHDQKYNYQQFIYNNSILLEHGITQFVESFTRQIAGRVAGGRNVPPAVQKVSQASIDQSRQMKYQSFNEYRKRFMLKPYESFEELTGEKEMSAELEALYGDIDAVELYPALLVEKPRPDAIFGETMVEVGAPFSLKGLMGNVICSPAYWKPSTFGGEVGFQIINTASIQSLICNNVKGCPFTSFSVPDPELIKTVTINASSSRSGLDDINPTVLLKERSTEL
HDAC6: Protein deacetylase HDAC6 (HDAC6, Homo sapiens, UniProt Q9UBN7)
UniProt Q9UBN7, sequence (whole entry, looked up): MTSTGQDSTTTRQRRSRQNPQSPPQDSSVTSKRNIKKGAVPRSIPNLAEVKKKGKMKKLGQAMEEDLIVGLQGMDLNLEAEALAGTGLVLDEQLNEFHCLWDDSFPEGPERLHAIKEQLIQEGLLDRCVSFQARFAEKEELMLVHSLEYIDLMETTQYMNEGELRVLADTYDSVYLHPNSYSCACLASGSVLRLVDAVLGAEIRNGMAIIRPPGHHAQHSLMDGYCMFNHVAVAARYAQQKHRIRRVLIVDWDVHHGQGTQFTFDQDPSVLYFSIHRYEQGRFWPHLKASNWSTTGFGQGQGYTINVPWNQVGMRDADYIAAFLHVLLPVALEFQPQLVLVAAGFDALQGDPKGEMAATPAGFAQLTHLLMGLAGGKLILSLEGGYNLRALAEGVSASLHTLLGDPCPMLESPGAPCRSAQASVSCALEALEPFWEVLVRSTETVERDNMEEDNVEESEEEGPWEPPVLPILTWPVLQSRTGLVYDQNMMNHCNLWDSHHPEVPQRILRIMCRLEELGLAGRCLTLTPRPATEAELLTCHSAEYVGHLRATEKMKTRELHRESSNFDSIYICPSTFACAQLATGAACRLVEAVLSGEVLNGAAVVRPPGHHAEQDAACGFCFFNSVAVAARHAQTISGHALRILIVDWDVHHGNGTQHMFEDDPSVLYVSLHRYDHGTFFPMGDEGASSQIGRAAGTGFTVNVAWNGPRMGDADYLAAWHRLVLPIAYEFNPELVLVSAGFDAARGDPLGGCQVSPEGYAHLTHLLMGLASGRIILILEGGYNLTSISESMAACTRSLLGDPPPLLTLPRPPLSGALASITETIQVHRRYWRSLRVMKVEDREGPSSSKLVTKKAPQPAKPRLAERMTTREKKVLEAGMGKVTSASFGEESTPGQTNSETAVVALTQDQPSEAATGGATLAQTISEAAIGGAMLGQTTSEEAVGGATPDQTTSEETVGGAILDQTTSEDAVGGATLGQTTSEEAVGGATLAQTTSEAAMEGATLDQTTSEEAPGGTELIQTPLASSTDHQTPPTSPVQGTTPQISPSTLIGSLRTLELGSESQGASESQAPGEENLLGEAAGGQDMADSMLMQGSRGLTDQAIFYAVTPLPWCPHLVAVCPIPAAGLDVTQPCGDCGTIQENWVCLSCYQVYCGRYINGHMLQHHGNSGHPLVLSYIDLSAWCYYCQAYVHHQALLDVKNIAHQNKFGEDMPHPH
UniProt P00374, sequence (whole entry, looked up): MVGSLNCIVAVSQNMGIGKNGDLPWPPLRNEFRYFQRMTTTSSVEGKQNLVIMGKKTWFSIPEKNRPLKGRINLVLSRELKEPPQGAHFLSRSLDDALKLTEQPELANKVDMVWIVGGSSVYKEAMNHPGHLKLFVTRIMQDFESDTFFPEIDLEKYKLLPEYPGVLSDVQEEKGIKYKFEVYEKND

`Cc1cc(OS(=O)(=O)Oc2ccc(C(C)C)cc2)cc(C(=O)NO)c1` gave an inhibition of 7% (HDAC1; enzyme activity, inhibitor, fluorescence; 5 µM).
`CNCCCC12CCC(c3ccccc31)c1ccccc12` gave an inhibition of 76.6% (SCN1A; ion current, inhibitor, patch clamp; 30 µM).
The inhibition of `CC[C@H](C)[C@H](NC(=O)[C@H](CCC(N)=O)NC(=O)[C@@H](NC(=O)[C@H](CCSC)NC(=O)[C@H](CCCCN)NC(=O)[C@H](CO)NC(=O)[C@@H](NC(=O)[C@H](CCSC)NC(=O)[C@H](CC(C)C)NC(=O)[C@H](CC(N)=O)NC(=O)[C@@H](NC(=O)[C@@H](NC(=O)[C@H](CO)NC(=O)[C@H](CC(C)C)NC(=O)[C@H](C)NC(=O)[C@H](CCCNC(=N)N)NC(=O)[C@H](CCC(=O)O)NC(=O)[C@H](Cc1ccc(O)cc1)NC(=O)[C@H](Cc1ccccc1)NC(=O)[C@H](C)NC(=O)[C@H](CC(N)=O)NC(=O)[C@@H](N)CCCCN)[C@@H](C)CC)[C@@H](C)CC)[C@@H](C)O)C(C)C)C(=O)N[C@@H](CC(N)=O)C(=O)N[C@H](C(=O)O)C(C)C` is reported as 57% (Cyclin-dependent kinase 5, with p35 (CDK5, Homo sapiens, UniProt Q00535); enzyme activity, inhibitor, radiometric; 100 µM).
`Cc1c(OS(=O)(=O)Oc2ccc(C(F)(F)F)cc2)cccc1C(=O)NO` has an inhibition of 37% (HDAC8; enzyme activity, inhibitor, fluorescence; 10 µM).
For `O=C1Nc2ccccc2/C1=C1/Nc2ccccc2C1=O`, the inhibition was 9% (USP51; enzyme activity, inhibitor; 5 µM).
With `N#Cc1ccccc1CONC(=O)c1ccc(C(N)=O)cc1` the inhibition was 63% (SIRT6; enzyme activity, inhibitor, fluorescence; 100 µM).
`CC(C)OCCn1c(=S)[nH]c(=O)c2[nH]ccc21` has an inhibition of 99.8% (Myeloperoxidase (MPO, Homo sapiens, UniProt P05164); enzyme activity, inhibitor, fluorescence; 10 µM).
`N#CC[C@@]12C[C@@H]1[C@@H](n1cnc3c(Nc4ccccc4)nc(I)nc31)[C@H](O)[C@@H]2O` has an inhibition of 23% (SLC6A4 (Homo sapiens, UniProt P31645); ligand displacement, radioligand; 10 µM).
`Cc1c(OS(=O)(=O)Oc2ccc(C(C)(C)C)cc2)cccc1C(=O)NO` has an inhibition of 11% (HDAC8; enzyme activity, inhibitor, fluorescence; 10 µM).
For `COc1cc2ccnc(Cc3cccc(-c4ccccc4)c3)c2cc1OC`, the inhibition was 45% (PDE10A; enzyme activity, inhibitor, FP; 0.1 µM).
With `C=C[C@@]1(C)C=C2CC[C@@H]3[C@](C)(CCC[C@@]3(C)C(=O)O)[C@H]2CC1` the inhibition was 26.1% (PTGS2; enzyme activity, inhibitor; 1.95 µg/mL).
The inhibition of `Nc1c(Br)cc(Br)cc1CN[C@H]1CC[C@H](O)CC1` is reported as 0.595% (KCNA1 (Homo sapiens, UniProt Q09470); ion current, inhibitor, patch clamp; 10 µM).
With `CCCCC(=O)Nc1ccc(-c2ccc3ncn(CCC)c(=O)c3c2)cn1` the remaining binding was 100% (MAP3K1 (Homo sapiens, UniProt Q13233); binding, competition with immobilised ligand; 0.5 µM).
The inhibition of `O=c1cc(-c2ccc(O)c(O)c2)oc2cc(O)cc(O)c12` is reported as 100% (PTGS2; enzyme activity, inhibitor; 3.9 µg/mL).
The remaining binding of `C=CC(=O)N1CCC(COCC(=O)N2CCN(c3nc(-c4cnc(N)nc4C(F)F)nc(N4CCOC[C@@H]4C)n3)CC2)CC1` is reported as 100% (MAP3K14 (Homo sapiens, UniProt Q99558); binding, competition with immobilised ligand; 1 µM).
With `CC1(C)CCC[C@](C)([C@H]2CC[C@]3(C)[C@@H]2[C@H](O)C[C@@H]2[C@@]4(C)CC[C@H](O)C(C)(C)[C@@H]4[C@@H](O)C[C@]23C)O1` the inhibition was 0% (USP51; enzyme activity, inhibitor; 5 µM).
With `Cc1ccc(-c2ccc3c(c2)C=C(C(=O)Nc2ccc(C[N+](C)(C)C4CCOCC4)cc2)CCC3)cc1` the inhibition was over 70% (CCR5 (Homo sapiens, UniProt P51681); β-arrestin recruitment, antagonist; 1 µM).
With `CC[C@H](C)[C@H](NC(=O)[C@H](CCC(N)=O)NC(=O)[C@H](CC(C)C)NC(=O)[C@H](CCSC)NC(=O)[C@H](CCCCN)NC(=O)[C@H](CO)NC(=O)[C@H](CO)NC(=O)[C@H](CCSC)NC(=O)[C@H](CC(C)C)NC(=O)[C@H](CC(N)=O)NC(=O)[C@@H](NC(=O)[C@@H](NC(=O)[C@H](CO)NC(=O)[C@H](CC(C)C)NC(=O)[C@H](CS)NC(=O)[C@H](CCCNC(=N)N)NC(=O)[C@H](CC(=O)O)NC(=O)[C@H](Cc1c[nH]c2ccccc12)NC(=O)[C@H](Cc1ccccc1)NC(=O)[C@H](C)NC(=O)[C@H](CCC(=O)O)NC(=O)[C@@H](N)CCCCN)C(C)C)[C@@H](C)CC)C(=O)N[C@@H](CC(N)=O)C(=O)N[C@@H](C)C(=O)O` the inhibition was 3% (GSK3B (Homo sapiens, UniProt P49841); enzyme activity, inhibitor, radiometric; 1 µM).
`OCCc1ccc(O)c(O)c1` has an inhibition of 21% (USP51; enzyme activity, inhibitor; 5 µM).
With `Cc1cc(OS(=O)(=O)Oc2ccc3ccccc3c2)cc(C(=O)NO)c1` the inhibition was 41% (HDAC6; enzyme activity, inhibitor, fluorescence; 10 µM).
With `CC12CC3CC(C)(C1)CC(N)(C3)C2` the inhibition was 18.7% (SCN1A; ion current, inhibitor, patch clamp; 30 µM).
`CCCCCCC#Cc1cncc(-c2nnc(SCc3ccc([N+](=O)[O-])cc3)n2CCCN)c1` gave an inhibition of 82% (mraY (Staphylococcus aureus, UniProt Q2FZ93); cell-free assay, inhibitor; 250 µM).
`NC/C(=C\F)COc1cccc(Cn2c(=S)[nH]c(=O)c3[nH]cnc32)c1` gave an inhibition of under 50% (OPRD1 (Homo sapiens, UniProt P41143); ligand displacement, radioligand; 10 µM).
`O=[N+]([O-])c1cccc(NC(=S)NN=Cc2ccc(N3CCCCC3)cc2)c1` has an inhibition of 90.8% (DHFR (Homo sapiens, UniProt P00374); enzyme activity, inhibitor; 500 µM).
With `C1=C/COCc2cc(ccc2OCCN2CCCC2)Nc2nccc(n2)-c2cccc(c2)COC/1` the remaining binding was 54% (DDR1 (Homo sapiens, UniProt Q08345); binding; 0.1 µM).
For `COc1cc(-c2cncc3c2CN(C)Cc2cc(N4CCNCC4)ccc2-3)cc(OC)c1OC`, the remaining activity was 106% (WNK3 (Homo sapiens, UniProt Q9BYP7); enzyme activity, inhibitor; 1 µM).
With `O=C(c1ccc([N+](=O)[O-])cc1)N1CCC(n2cncc2-c2ccc(OS(=O)(=O)c3cccc4cnccc34)cc2)CC1` the inhibition was over 70% (P2X purinoceptor 7 (P2RX7, Homo sapiens, UniProt Q99572); ligand displacement, radioligand; 1 µM, cell membranes).
`COc1cc2ncnc(Cc3cccc(-c4cccc(CO)c4)c3)c2cc1OC` has an inhibition of 71% (PDE10A; enzyme activity, inhibitor, FP; 0.1 µM).
For `COc1cc([C@H]2OC[C@H]3[C@@H]2CO[C@@H]3c2cc(OC)c(O)c(OC)c2)cc(OC)c1O`, the inhibition was 6.24% (PTGS2; enzyme activity, inhibitor; 0.12 µg/mL).
For `CC(C)(C)c1cccc(OS(=O)(=O)Oc2cncc(C(=O)NO)c2)c1`, the inhibition was 50% (HDAC1; enzyme activity, inhibitor, fluorescence; 5 µM).
`CC1=C(/C=C/C(C)=C/C=C/C(C)=C/C=C/C=C(C)/C=C/C=C(C)/C=C/C2=C(C)CCCC2(C)C)C(C)(C)CCC1` has an inhibition of 41% (USP51; enzyme activity, inhibitor; 5 µM).
`Cc1cc(OS(=O)(=O)Oc2ccccc2)cc(C(=O)NO)c1` has an inhibition of 10% (HDAC1; enzyme activity, inhibitor, fluorescence; 5 µM).
For `O=C(/C=C/c1ccc(O)c(O)c1)O[C@H](Cc1ccc(O)c(O)c1)C(=O)O`, the inhibition was 45% (USP51; enzyme activity, inhibitor; 5 µM).
`Cc1cc([C@@H](C)Nc2ccccc2C(=O)O)c2nc(N3CCC(F)(F)CC3)c(C#N)c(=O)n2c1` gave a remaining binding of 100% (STK32C (Homo sapiens, UniProt Q86UX6); binding, competition with immobilised ligand; 10 µM).
For `NC(=O)c1ccc(C(=O)NOCc2ccc(Sc3ccccc3)c(C(F)(F)F)c2)cc1`, the inhibition was 98.6% (SIRT6; enzyme activity, inhibitor, fluorescence; 100 µM).
For `COc1cc2ncnc(Cc3ccc4cnn(C)c4c3)c2cc1OC`, the inhibition was 48% (PDE10A; enzyme activity, inhibitor, FP; 0.1 µM).
`COc1ccc(-c2oc3c(CC=C(C)C)c(O)cc(O)c3c(=O)c2O)cc1` has an inhibition of 35% (USP51; enzyme activity, inhibitor; 5 µM).
For `NC(=O)c1ccc(C(=O)NOCc2ccc(-c3ccccc3)cc2)cc1`, the inhibition was 98.3% (SIRT6; enzyme activity, inhibitor, fluorescence; 100 µM).
`COC(=O)c1ccc(O)cc1` gave an inhibition of 5.02% (PTGS2; enzyme activity, inhibitor; 3.9 µg/mL).
With `CNc1ncc2c(/C=C/C(=O)N3CCC(OC)CC3)nn(Cc3cccc(C(F)(F)F)c3)c2n1` the remaining activity was 104% (SGK2 (Homo sapiens, UniProt Q9HBY8); enzyme activity, inhibitor, radiometric; 1 µM).
The inhibition of `CN1CC(Oc2cnc(C#N)cc2-c2ccn3nc(NC(=O)C4CC4)cc3c2)C1` is reported as 4% (PAK1 (Homo sapiens, UniProt Q13153); enzyme activity, inhibitor; 1 µM).
`C#Cc1cc(-c2cc(Nc3nc(N[C@@H](C)c4ccc(F)cn4)ncc3Cl)n[nH]2)ccc1C=O` gave an inhibition of 19% (PKN3 (Homo sapiens, UniProt Q6P5Z2); enzyme activity, inhibitor; 0.2 µM).
`O=C1c2c(O)cc(O)cc2O[C@H](c2cc(O)c(O)c(O)c2)[C@H]1O` has an inhibition of 100% (USP51; enzyme activity, inhibitor; 5 µM).
For `Cc1cc(OS(=O)(=O)Oc2ccc(C(F)(F)F)cc2)cc(C(=O)NO)c1`, the inhibition was 45% (HDAC6; enzyme activity, inhibitor, fluorescence; 10 µM).
For `CC(C)[C@@H]1CC[C@@H](C)C[C@H]1O`, the inhibition was 18% (USP51; enzyme activity, inhibitor; 5 µM).
For `Cc1c(OS(=O)(=O)Oc2cccc(C(C)(C)C)c2)cccc1C(=O)NO`, the inhibition was 16% (HDAC8; enzyme activity, inhibitor, fluorescence; 10 µM).
For `COc1cccc(-c2n[nH]c(SCc3ccccn3)n2)c1OC`, the concentration was 4940 ng/mL (female Sprague-Dawley rat, plasma; oral, 10 mg/kg, 1 h, single dose).
The inhibition of `O=c1cc(-c2ccc(O)cc2)oc2cc(O)cc(O)c12` is reported as 57% (PTGS2; enzyme activity, inhibitor; 3.9 µg/mL).

Excerpt of the above:
With `CCCCC(=O)Nc1ccc(-c2ccc3ncn(CCC)c(=O)c3c2)cn1` the remaining binding was 100% (MAP3K1 (Homo sapiens, UniProt Q13233); binding, competition with immobilised ligand; 0.5 µM).
The inhibition of `O=c1cc(-c2ccc(O)c(O)c2)oc2cc(O)cc(O)c12` is reported as 100% (PTGS2; enzyme activity, inhibitor; 3.9 µg/mL).
The remaining binding of `C=CC(=O)N1CCC(COCC(=O)N2CCN(c3nc(-c4cnc(N)nc4C(F)F)nc(N4CCOC[C@@H]4C)n3)CC2)CC1` is reported as 100% (MAP3K14 (Homo sapiens, UniProt Q99558); binding, competition with immobilised ligand; 1 µM).
With `CC1(C)CCC[C@](C)([C@H]2CC[C@]3(C)[C@@H]2[C@H](O)C[C@@H]2[C@@]4(C)CC[C@H](O)C(C)(C)[C@@H]4[C@@H](O)C[C@]23C)O1` the inhibition was 0% (USP51; enzyme activity, inhibitor; 5 µM).
With `Cc1ccc(-c2ccc3c(c2)C=C(C(=O)Nc2ccc(C[N+](C)(C)C4CCOCC4)cc2)CCC3)cc1` the inhibition was over 70% (CCR5 (Homo sapiens, UniProt P51681); β-arrestin recruitment, antagonist; 1 µM).
With `CC[C@H](C)[C@H](NC(=O)[C@H](CCC(N)=O)NC(=O)[C@H](CC(C)C)NC(=O)[C@H](CCSC)NC(=O)[C@H](CCCCN)NC(=O)[C@H](CO)NC(=O)[C@H](CO)NC(=O)[C@H](CCSC)NC(=O)[C@H](CC(C)C)NC(=O)[C@H](CC(N)=O)NC(=O)[C@@H](NC(=O)[C@@H](NC(=O)[C@H](CO)NC(=O)[C@H](CC(C)C)NC(=O)[C@H](CS)NC(=O)[C@H](CCCNC(=N)N)NC(=O)[C@H](CC(=O)O)NC(=O)[C@H](Cc1c[nH]c2ccccc12)NC(=O)[C@H](Cc1ccccc1)NC(=O)[C@H](C)NC(=O)[C@H](CCC(=O)O)NC(=O)[C@@H](N)CCCCN)C(C)C)[C@@H](C)CC)C(=O)N[C@@H](CC(N)=O)C(=O)N[C@@H](C)C(=O)O` the inhibition was 3% (GSK3B (Homo sapiens, UniProt P49841); enzyme activity, inhibitor, radiometric; 1 µM).
